Measured values pooled from the literature.
Numbered parts are unrelated; each lists some results of a single study.

Sample 1 — technique: universal PBM; molecule type: double-stranded DNA, one strand shown; medium: in vitro; tested at: not given; reading: higher = stronger binding
Target: Sal-like protein 4, full length isoform B (SALL4, Homo sapiens, UniProt Q9UJQ4-2, residues 1-616)
Setting: 8-mer, flanks averaged, mean of replicates
Residues (chain): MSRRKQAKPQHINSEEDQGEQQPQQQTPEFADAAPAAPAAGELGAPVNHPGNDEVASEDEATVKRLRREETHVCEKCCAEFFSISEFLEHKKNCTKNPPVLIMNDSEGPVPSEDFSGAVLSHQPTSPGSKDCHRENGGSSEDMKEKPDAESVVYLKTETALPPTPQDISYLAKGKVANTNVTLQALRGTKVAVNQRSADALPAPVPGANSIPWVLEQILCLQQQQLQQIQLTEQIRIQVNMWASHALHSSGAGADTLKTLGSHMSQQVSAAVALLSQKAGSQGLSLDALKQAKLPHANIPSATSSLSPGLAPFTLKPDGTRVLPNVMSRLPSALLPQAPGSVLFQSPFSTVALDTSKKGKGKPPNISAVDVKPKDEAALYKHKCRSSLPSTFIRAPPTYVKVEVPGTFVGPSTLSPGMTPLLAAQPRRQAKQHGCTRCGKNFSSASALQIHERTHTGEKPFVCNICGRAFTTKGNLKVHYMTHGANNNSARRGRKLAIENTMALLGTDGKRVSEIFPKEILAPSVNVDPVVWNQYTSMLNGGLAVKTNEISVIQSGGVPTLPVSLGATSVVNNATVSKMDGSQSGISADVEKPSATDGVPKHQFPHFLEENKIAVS
Oligonucleotide	E-score
CACAATGA	0.0728
GTCGTCAC	0.00402
CAGTAATA	0.362
CGCTCCCA	-0.196

Sample 2 — technique: protein binding microarray; molecule type: double-stranded DNA, one strand shown; medium: in vitro; tested at: not given; reference: not given; reading: higher = stronger binding
Target: Histone acetyltransferase KAT6A, both winged helices, GST fusion (KAT6A, Homo sapiens, UniProt Q92794, residues 1-181)
Setting: 8-mer, flanks averaged, mean of 2 arrays, mostly near background
Construct (chain): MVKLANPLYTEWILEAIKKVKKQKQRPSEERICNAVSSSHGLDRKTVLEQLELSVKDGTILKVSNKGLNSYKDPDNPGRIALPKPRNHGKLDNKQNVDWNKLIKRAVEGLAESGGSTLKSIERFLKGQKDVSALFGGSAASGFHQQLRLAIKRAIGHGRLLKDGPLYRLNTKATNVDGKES
Oligonucleotide	E-score
TTCGTCAA	-0.072
AGTAGCTA	-0.157
AATCTTAA	-0.13
AGGGGTGA	-0.241

Other studies, line by line
PABPC1L2 full length, GST fusion: PABPC1L2, full length, GST fusion (mouse, UniProt A0ABA7IW68)
Substance	target	assay	test system	setting	how to read	quantity	result
UAAUAUU	PABPC1L2 full length, GST fusion	RNAcompete	RNA, in vitro	20 nM, 7-mer, probes averaged, single round	reference: mean of 7-mers, higher = stronger binding	7-mer Z-score	-0.195
PhoQ, residues 284 288 289 292 302 303 NLCILV	PhoP, residues 12 14 15 18 19 QWHVF (Escherichia coli, UniProt P23836)	Sort-seq, refers to: YFP reporter	E. coli	PhoQ-PhoP variant library, together with: 10 µM Mg2+	reference: high Mg2+ state, higher = stronger signaling	fold induction	24
GUGCCAG	PABPC1L2 full length, GST fusion	RNAcompete	RNA, in vitro	20 nM, 7-mer, probes averaged, single round	reference: mean of 7-mers, higher = stronger binding	7-mer Z-score	-0.0971

Some of these lines once more (other studies, line by line):
Substance	target	assay	test system	setting	how to read	quantity	result
PhoQ, residues 284 288 289 292 302 303 NLCILV	PhoP, residues 12 14 15 18 19 QWHVF (Escherichia coli, UniProt P23836)	Sort-seq, refers to: YFP reporter	E. coli	PhoQ-PhoP variant library, together with: 10 µM Mg2+	reference: high Mg2+ state, higher = stronger signaling	fold induction	24
